Measurements collected from several papers.
Numbered parts are unrelated; each lists some results of a single study.

Set 1 — technique: protein-binding microarray; molecule type: double-stranded DNA, one strand shown; matrix: in vitro; concentration: 2200 nM top; setting: 60-bp whole probe; added: salmon DNA 0.4 mg/ml; baseline: random background probes; reading: higher = stronger binding; constant ends, left off below: GCCTAGCAC … GTCTTGATTCGCTTGACGCTGCTG
Target: Interferon regulatory factor 7, full length, phosphomimetic (IRF7, Homo sapiens, UniProt Q92985, residues 1-503, S471D/S472D/S475D/S476D/S477D/S483D/S484D/S487D)
Chain of UniProt Q92985 (whole entry, unmodified, looked up): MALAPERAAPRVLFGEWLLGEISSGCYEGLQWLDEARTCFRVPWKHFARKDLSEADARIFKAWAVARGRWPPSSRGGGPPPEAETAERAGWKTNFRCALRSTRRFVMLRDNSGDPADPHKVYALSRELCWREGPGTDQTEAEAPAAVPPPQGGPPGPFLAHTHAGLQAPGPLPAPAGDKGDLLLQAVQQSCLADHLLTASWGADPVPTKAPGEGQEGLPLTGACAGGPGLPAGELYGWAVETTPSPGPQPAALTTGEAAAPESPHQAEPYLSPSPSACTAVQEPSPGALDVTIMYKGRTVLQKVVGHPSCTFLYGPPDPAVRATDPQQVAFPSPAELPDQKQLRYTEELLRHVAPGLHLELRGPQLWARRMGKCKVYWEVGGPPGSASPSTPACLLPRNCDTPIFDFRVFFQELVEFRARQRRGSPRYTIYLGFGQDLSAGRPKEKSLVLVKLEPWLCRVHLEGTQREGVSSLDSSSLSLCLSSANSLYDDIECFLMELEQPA
Strand | fitted relative affinity [z-score]
TTAGATTTCGGGTATCGATTCGTGCTA | 3.57
TCAATTTTCATTATTGCACTGTGCTAG | 2.51
TCAATTCCCTTTCTCAAACTGTGCTAG | 2.29
TTTCATTTTTTTTTTCATCAGTGCTAG | 8.32
TTAGAACTGAGTCCCGATTAGTGCTAG | -0.0452
GCCGGTCTCGGTCTCGGGACGTGCTAG | 0.299
GACGATCTCTGTATCGAGACGTGCTAG | 0.402
GAGGAGATGAGAAACGATGAGTGCTAG | -0.374
GACGGTTTCGGGTTTCGGGAAGTGCTA | 8.72
TTAGGTCTCATACTGCTTTAGTGCTAG | 0.578
GACGATTTCAGTCTTGAGACGTGCTAG | 0.734
CTGAGTCCCTATCTCCTCACGTGCTAG | 1.33
TTAGGTATCGGTCTCGGTTCGTGCTAG | 1.86
GACGGAATGGGTTTCGGGACGTGCTAG | 1.47
TCAAATTACCTTTTCACACTGTGCTAG | 1.24
TCTTCTGGTGTGTCTGAAGAGTGCTAG | 0.828
TTACGTTTCGGTTTCGGTTAGTGCTAG | 15.2
GACGGTTTCGTTTCCGGGACGTGCTAG | 9.46
GACGGTCTGGACTATCGGGACGTGCTA | -0.583
TATAGAGTAGTTTTTCAACCAGTGCTA | -0.00776
GACGGACTGGACGATCGGGACGTGCTA | -0.551
GACGATTTCGGGTATCGGGACGTGCTA | 2.88
TTTTGAAGTTTGGCGTTGACGTGCTAG | 0.179
TTAGATTACAGTCTCGATTAGTGCTAG | 0.505
TTAAGTTTCGGACTGGGTTAGTGCTAG | 4.32

Set 2 — technique: RNA Bind-n-Seq; molecule type: RNA; matrix: in vitro; concentration: not given; baseline: input RNA pool; reading: higher = stronger binding
Target: RING finger protein unkempt homolog, zinc fingers 1-6, GST-SBP tag (UNK, Homo sapiens, UniProt Q9C0B0, residues 30-357)
Chain of UniProt Q9C0B0 (30-357, looked up): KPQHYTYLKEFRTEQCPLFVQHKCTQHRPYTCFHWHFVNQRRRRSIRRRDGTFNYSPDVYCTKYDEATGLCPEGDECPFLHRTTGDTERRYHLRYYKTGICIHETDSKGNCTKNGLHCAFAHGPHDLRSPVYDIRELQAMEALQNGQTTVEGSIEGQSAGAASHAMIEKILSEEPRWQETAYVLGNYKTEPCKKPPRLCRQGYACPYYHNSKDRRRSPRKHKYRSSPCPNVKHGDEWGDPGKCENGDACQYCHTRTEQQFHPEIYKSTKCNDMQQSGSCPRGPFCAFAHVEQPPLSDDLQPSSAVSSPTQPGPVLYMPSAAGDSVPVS
Setting: RNA with constant flanks, human and mouse sites, ends assumed
Strand | bound/input enrichment [ratio]
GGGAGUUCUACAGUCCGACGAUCCGAGUGUUAAGGGUUAGGGUGGUUGUGCAAGCAAAUUUUUAAGUUGUAUUUUUAUAAACUUUCAGUUAAGGAUUAUUAUUAACAACCAGGUCAACAUGAUAAGCCUACAUUUAUAUAGAGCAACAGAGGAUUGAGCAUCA | 0.757
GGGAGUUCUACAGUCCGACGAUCUGCUGUACUCUUGCUGAUGGCUGCUAGAUUUUAAUUUAUUUGUUUCCCUACUUGAUAAUAUUAGUGAUUCUGAUUUCAGUUUUUCAUUUGUUUUGCUUUUGUUUUUUUCCUCAUGUAACACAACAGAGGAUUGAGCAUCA | 17.5
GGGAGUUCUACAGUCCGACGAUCACUCUUGACUCUUUCCAUCCUCUUCCUUUCCCUCUUGAUAUUCAAGGCCAUGAAUCCCAAAAUAACAGUCUUAGUGGCUAGCACCCAAACAGAGGUGGAAUAAAUCCACCCCAGUGUCUCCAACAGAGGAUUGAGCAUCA | 0.6
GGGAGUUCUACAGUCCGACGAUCCCCAUCAUUGAGUCUUCCUCAAAUAUCAAAUUUGGAUGUUUUCAAUGGUACUAUCCUGAAUUAGCUUUCCAGUUCAAAGAUGCAGGGCUAAGUAUCUUCAACAAUACAUGGAGUAACAUUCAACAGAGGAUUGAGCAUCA | 0.31
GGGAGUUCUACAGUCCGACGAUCAGCUAUGAUGAGAGCUAUUAUCAUCUGUGGUGGGAAAAGCUAUGUAAAUAGGUAGAUUGUAUAGAGAGACUAUCUUGUGUUGUGCCUGUAUGAAUUUUUAAAAGUUGUUGACUGGAUUUUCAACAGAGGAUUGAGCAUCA | 0.891
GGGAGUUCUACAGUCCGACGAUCGUUAGCUGGGGUAAAAAGGUCCAGCCUAUAGACUCCAUAUUAGCAGACUGGAAUGAAGAUAUAGAAGCAUUUGAAAUGAUGGAGAAGGAUGAGCUAUGACUUGCUAAACAAUCUGUUGGUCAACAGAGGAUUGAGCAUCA | 2.65
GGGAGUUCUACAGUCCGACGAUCGGACAGGGAUUUUUGUAAGUCUAUAUUUGAAAGUCCCUCCAUAUGGUAAUAUUGUGUUCAUGUUGUAUAUGUAGUGUUGUGUGAAAUAUCCAUUUUGGAUUGUGUUACUUUUUAAGAUAUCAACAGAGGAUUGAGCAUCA | 0.603
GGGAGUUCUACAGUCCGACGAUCUACCUCUUACAAAAAAAAGAAAAAAAAAGAAAAAGUUCAUUUCUUCAUUCUGUUUGUAUCUAGCGAAGCUGAAUGUCAGAAGCCCCUCUGUCCACACACAAAGUCUGCAUGUAUUGGUCGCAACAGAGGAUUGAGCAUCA | 0.708
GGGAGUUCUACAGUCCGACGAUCAUACAGCCUGUGCAACUGCGAGUAUUAAAUGUAUGUCGGCACUGGGUAGAGCACCACUUCUAUGAUUUUGAAAGAGAUGCAUAUCUUUUGCAACGAAUGGAAGAAUUUAUUGGAACAGUACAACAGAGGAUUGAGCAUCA | 0.125
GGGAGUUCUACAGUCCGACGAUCGGCUUCGAGCUUCCUCAAGGGCCCCUGGGAACAUCCUUUAAAGGAAAAUAUGGUUGCGUAGACUACUGGGUGAAGGCUUUUCUCGAUCGCCCCAGCCAGCCAACUCAAGAGGCAAAGAAACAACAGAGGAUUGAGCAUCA | 0.11
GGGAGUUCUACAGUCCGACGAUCAAAGAUCUACUGAGGCAAGGCAGCAAAUUUAGAAGAAAUGUAUCAACACUAUUAAUAGAGUUAGGAUUCCAAAUUAAAAAAAAAACUAAAAGAUUGUAUAUCAACAAAGCCAAUAUCUGGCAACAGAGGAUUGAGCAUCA | 17.7

Set 3 — technique: universal PBM; molecule type: double-stranded DNA, one strand shown; matrix: in vitro; concentration: not given; reading: higher = stronger binding
Target: Sal-like protein 4, full length isoform B (SALL4, Homo sapiens, UniProt Q9UJQ4-2, residues 1-616)
Setting: 8-mer, flanks averaged, mean of replicates
Residues (chain): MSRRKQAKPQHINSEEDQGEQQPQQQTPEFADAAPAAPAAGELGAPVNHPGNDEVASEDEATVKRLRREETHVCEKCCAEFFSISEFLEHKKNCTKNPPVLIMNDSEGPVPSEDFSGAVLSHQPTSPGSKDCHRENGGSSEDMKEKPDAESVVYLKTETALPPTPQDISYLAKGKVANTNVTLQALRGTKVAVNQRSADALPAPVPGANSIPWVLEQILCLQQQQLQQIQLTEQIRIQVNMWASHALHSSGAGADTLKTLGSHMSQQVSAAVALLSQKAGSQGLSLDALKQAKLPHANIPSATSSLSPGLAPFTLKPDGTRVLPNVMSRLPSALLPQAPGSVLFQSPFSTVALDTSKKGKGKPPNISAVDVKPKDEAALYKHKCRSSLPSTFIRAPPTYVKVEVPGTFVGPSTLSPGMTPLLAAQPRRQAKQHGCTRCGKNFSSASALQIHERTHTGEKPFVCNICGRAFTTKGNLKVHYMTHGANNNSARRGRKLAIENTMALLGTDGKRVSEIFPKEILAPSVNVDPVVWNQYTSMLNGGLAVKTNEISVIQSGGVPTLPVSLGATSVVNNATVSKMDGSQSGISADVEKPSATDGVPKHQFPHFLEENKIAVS
Strand | E-score
CTTGGGAC | -0.165
ACAAGAAA | 0.21
AACAGACT | 0.0881
AAACGTGA | 0.12
AAGTTGGG | -0.152
ATAATTCG | 0.285
ATGTGGAA | 0.16
AAACTGCA | -0.0469
GTCAAACA | 0.0404
GGCGCAGA | -0.238
CCATTCAG | 0.0676
CTCCACTC | -0.1
ATGCTGTA | 0.128
CCAGGGTC | -0.305
CTGACTCC | -0.196
ACGTAACT | -0.00974
CAGCGCAG | -0.219
CTCAGGAG | -0.246
CGGTGAAA | 0.014
AATCTTAG | 0.0536
AGGCGCTC | -0.38
CCTCAAAG | -0.0623
TCCATGAA | 0.246
CAACGTGA | -0.0781
AAAACCGC | -0.179

Mixed results — organism: Saccharomyces cerevisiae; effect on: binding; technique: competitive growth deep sequencing; molecule type: peptide; concentration: concentration not given; reading: direction not given
Sequence | strain | setting | growth enrichment score
KRNLLNEFDRII | cyclin D3-Cln2 fusion strain | tiling library, Cln2 subtracted | -0.227
GSPLKKLFTATGL | cyclin E1-Cln2 fusion strain | combined peptide libraries | 0.779
ASPLKKLFTSTGL | cyclin E1-Cln2 fusion strain | peptide library 1 | 0.46
